Values quoted from earlier work, collected from citations in different studies.
± gives the spread as reported.
Gastrin-releasing peptide receptor: Gastrin-releasing peptide receptor (Rattus norvegicus, UniProt P52500)
Sequence of UniProt P52500 (whole entry, looked up): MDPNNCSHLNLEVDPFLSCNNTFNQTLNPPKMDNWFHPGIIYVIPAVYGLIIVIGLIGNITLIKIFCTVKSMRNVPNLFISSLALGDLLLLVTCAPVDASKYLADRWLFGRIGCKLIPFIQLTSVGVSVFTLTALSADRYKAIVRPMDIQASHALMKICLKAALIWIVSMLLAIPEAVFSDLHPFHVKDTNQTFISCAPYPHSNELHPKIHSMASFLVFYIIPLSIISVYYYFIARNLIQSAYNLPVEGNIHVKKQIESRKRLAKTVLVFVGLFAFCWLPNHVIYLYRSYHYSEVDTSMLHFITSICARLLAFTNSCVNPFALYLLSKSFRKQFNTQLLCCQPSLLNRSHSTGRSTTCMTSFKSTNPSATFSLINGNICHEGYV
atpG/atpA/atpD: atpG/atpA/atpD (Escherichia coli, UniProt P0ABA6+P0ABB0+P0ABB4)
Sequence of UniProt P0ABB0 (whole entry, looked up): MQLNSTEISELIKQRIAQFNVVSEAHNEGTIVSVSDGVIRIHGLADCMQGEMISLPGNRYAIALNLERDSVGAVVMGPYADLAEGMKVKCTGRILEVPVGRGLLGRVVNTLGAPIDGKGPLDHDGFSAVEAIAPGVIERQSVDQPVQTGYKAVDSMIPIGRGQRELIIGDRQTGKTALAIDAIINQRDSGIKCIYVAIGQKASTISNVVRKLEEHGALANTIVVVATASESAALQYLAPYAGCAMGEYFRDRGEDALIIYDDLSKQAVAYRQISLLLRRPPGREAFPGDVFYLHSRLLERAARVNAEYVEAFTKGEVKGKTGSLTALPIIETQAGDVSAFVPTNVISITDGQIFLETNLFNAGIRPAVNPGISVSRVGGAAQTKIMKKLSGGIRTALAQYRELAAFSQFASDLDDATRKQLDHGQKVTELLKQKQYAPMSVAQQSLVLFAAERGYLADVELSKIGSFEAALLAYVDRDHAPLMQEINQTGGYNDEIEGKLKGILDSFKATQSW
Sequence of UniProt P0ABB4 (whole entry, looked up): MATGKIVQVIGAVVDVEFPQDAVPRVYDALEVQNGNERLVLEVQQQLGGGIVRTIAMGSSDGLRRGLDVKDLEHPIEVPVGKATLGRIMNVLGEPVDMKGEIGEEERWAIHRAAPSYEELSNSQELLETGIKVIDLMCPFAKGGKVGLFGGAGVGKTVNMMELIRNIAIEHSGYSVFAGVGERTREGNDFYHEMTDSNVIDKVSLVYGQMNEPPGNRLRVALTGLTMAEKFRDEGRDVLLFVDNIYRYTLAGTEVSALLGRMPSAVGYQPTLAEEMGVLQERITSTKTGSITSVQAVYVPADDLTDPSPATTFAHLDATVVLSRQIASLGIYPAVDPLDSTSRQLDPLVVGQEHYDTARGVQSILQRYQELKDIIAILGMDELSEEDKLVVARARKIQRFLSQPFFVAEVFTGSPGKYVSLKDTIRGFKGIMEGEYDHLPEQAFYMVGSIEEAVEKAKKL
Sequence of UniProt P0ABA6 (whole entry, looked up): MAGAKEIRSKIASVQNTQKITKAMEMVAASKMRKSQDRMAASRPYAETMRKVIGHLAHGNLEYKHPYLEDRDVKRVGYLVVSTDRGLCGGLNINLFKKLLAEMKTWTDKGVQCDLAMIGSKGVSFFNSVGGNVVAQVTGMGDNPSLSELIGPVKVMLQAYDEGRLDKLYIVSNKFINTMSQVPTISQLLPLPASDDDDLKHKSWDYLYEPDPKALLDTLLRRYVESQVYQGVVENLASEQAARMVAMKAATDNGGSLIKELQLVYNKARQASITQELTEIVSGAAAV
Sequence of UniProt P29703 (whole entry, looked up): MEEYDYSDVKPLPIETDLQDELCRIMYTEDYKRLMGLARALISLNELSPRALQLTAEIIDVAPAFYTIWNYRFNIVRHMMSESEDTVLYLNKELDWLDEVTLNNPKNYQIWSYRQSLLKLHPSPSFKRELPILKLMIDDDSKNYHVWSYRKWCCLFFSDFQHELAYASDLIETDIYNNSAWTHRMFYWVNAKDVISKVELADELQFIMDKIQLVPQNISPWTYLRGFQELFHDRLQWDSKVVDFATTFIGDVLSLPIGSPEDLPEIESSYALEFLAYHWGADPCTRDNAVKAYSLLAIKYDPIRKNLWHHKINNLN
Sequence of UniProt O94956 (whole entry, looked up): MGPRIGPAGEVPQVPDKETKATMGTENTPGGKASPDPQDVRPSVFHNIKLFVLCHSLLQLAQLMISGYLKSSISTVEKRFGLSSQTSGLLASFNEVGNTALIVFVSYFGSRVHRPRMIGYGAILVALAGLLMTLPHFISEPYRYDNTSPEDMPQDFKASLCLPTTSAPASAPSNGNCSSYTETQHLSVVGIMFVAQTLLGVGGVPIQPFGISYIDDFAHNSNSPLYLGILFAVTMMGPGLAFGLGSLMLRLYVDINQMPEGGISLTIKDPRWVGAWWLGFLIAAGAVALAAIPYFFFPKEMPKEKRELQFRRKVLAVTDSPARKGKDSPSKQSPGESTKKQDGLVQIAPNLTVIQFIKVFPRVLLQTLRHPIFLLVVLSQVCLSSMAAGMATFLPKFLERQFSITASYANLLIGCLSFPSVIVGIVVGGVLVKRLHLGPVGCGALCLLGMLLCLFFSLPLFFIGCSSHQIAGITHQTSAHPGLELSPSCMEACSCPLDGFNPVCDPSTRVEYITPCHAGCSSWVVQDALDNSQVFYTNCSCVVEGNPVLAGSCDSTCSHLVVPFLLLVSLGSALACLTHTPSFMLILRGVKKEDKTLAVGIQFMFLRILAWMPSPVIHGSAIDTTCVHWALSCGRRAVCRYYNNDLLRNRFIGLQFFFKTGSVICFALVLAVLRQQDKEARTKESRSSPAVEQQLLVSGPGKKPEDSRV
Sequence of UniProt Q92911 (whole entry, looked up): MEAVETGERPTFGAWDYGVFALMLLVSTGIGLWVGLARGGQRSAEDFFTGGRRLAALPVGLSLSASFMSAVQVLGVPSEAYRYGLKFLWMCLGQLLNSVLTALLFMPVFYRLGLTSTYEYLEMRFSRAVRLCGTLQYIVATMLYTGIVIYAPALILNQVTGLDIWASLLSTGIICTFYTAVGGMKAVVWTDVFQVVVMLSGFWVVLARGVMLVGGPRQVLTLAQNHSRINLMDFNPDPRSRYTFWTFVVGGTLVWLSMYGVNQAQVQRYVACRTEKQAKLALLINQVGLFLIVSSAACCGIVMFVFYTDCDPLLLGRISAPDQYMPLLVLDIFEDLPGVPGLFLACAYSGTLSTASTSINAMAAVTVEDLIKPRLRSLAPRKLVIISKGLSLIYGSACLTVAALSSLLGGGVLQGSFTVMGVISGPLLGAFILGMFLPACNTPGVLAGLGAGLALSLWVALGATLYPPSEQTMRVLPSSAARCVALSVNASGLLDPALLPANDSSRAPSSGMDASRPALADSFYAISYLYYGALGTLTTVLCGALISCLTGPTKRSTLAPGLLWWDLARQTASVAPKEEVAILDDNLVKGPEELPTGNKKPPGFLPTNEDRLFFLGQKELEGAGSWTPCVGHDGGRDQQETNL
Sequence of UniProt P50406 (whole entry, looked up): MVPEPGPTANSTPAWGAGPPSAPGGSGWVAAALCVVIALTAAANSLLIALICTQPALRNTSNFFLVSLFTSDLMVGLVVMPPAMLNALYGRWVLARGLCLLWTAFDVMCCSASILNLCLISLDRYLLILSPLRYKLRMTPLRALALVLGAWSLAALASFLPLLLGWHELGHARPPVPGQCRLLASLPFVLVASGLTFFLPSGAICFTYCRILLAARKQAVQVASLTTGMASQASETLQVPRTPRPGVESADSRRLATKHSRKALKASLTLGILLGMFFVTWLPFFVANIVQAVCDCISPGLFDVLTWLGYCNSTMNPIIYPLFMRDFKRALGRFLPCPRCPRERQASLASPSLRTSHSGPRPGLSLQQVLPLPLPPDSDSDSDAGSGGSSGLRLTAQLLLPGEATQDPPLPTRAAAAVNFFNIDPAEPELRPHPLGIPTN
Sequence of UniProt P22007 (whole entry, looked up): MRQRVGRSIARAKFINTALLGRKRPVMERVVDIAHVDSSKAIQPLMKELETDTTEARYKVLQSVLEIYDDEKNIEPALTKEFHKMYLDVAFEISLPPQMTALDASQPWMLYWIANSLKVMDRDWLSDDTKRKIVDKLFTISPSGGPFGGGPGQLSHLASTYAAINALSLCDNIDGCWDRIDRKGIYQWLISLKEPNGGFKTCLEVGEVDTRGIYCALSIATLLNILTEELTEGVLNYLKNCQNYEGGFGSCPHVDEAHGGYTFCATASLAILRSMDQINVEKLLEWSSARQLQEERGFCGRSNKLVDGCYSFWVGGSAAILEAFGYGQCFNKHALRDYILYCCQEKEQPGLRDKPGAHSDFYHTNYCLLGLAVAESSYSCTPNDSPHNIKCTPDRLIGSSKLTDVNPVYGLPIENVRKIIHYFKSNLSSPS
Sequence of UniProt Q60492 (whole entry, looked up): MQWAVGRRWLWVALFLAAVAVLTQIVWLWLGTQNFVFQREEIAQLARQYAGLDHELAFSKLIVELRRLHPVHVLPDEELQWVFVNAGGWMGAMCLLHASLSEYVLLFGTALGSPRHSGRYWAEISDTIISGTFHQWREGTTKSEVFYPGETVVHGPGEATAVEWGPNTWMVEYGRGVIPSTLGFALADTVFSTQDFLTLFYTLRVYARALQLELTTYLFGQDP
Sequence of UniProt P14756 (whole entry, looked up): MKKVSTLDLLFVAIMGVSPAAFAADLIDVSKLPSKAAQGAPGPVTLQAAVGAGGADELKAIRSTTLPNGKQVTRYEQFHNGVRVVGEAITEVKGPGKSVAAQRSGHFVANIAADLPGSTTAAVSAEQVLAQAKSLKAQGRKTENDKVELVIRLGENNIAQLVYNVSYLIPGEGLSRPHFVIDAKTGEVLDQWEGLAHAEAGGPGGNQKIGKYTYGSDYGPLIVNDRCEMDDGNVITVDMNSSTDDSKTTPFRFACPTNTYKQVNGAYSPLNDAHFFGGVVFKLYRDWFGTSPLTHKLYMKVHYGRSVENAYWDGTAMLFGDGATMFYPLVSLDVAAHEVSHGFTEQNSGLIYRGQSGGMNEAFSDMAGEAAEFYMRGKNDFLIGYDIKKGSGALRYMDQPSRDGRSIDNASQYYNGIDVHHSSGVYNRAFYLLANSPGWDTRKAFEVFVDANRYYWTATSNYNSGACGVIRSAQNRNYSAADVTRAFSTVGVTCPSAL

CC(C)C[C@H](NC(=O)OCc1ccccc1)C(=O)N[C@@H](CC1CCNC1=O)C(O)S(=O)(=O)O (stereo partly shown)
IC50 (CAPN1 (Homo sapiens, UniProt P07384); inhibitor): 74 nM

O=C(/C=C/c1ccc(O)c(O)c1)O[C@@H](C(=O)O)[C@@H](OC(=O)/C=C/c1ccc(O)c(O)c1)C(=O)O
IC50 (HIV integrase; enzyme activity, inhibitor): 60 nM

CCCCCCNC(=O)[C@H](CC(C)C)NC(=O)[C@H](Cc1cnc[nH]1)NC(=O)CNC(=O)[C@@H](NC(=O)[C@H](C)NC(=O)[C@H](Cc1c[nH]c2ccccc12)NC(=O)[C@H](CCC(N)=O)NC(=O)[C@H](N)Cc1ccccc1)C(C)C
IC50 (Gastrin-releasing peptide receptor; binding; literature species comparison): 103 ± 8 nM

O=C(O)C1=CC(=C(c2ccc(O)c(C(=O)O)c2)c2ccc(O)c(C(=O)O)c2)C=CC1=O
IC50 (HCV NS3 helicase; RNA unwinding, inhibitor): 400 ± 200 nM

Cc1ccc(C(=O)Nc2ccc(S(=O)(=O)O)c3cc(S(=O)(=O)O)cc(S(=O)(=O)O)c23)cc1NC(=O)c1cccc(NC(=O)Nc2cccc(C(=O)Nc3cc(C(=O)Nc4ccc(S(=O)(=O)O)c5cc(S(=O)(=O)O)cc(S(=O)(=O)O)c45)ccc3C)c2)c1
IC50 (CD40 ligand, with CD40 (Homo sapiens, UniProt P29965); CD40-CD40L interaction): ~50000 nM

O=c1c2nc(Br)n([C@@H]3O[C@@H]4CO[P@@](O)(=S)O[C@H]4[C@H]3O)c2nc2[nH]c(-c3ccccc3)cn12
Km or Ki (PDE2A; cyclic nucleotide hydrolysis, substrate or inhibitor, isothermal titration calorimetry): 760 nM

CC(C)c1ccc(NC(=O)Oc2ccc3c(c2)[C@]2(C)CCN[C@@H]2N3)cc1
IC50 (Cholinesterase (BCHE, Homo sapiens, UniProt P06276); enzyme activity, inhibitor): 1 ± 0.1 nM

CCCCCCCNC(=O)[C@H](CC(C)C)NC(=O)[C@H](Cc1c[nH]cn1)NC(=O)CNC(=O)[C@@H](NC(=O)[C@H](C)NC(=O)[C@H](Cc1c[nH]c2ccccc12)NC(=O)[C@H](CCC(N)=O)NC(=O)[C@H](N)Cc1ccccc1)C(C)C
IC50 (Gastrin-releasing peptide receptor; binding; literature species comparison): 92 ± 12 nM

O=C(O)c1cc(N(Cc2ccccc2O)Cc2ccccc2O)ccc1O
IC50 (Gag-Pol polyprotein, integrase with LEDGF/p75 (gag-pol, Human immunodeficiency virus 1, UniProt P12497); binding, AlphaScreen): 94100 nM

COc1ccc(C(=O)NN=Cc2ccc(O)c3ncccc23)cc1
IC50 (Chaperonin GroEL, with GroES (groEL, Escherichia coli, UniProt P0A6F5); GroEL/ES-mediated refolding, inhibitor; together with: denatured malate dehydrogenase): 31000 nM

CCCCCCC[C@@H]1CC[C@@H](CCCC)N1
IC50 (SIGMAR1 (Cavia porcellus, UniProt Q60492); binding; together with: [3H](+)-pentazocine): 2 nM

CC(C)c1c(Cc2ccccc2)n(COCc2ccccc2)c(=O)n(O)c1=O
IC50 (Gag-Pol polyprotein, integrase (gag-pol, Human immunodeficiency virus type 1 group M subtype B, UniProt P04585); strand transfer, inhibitor, gel; HIV-1): 21000 ± 2000 nM

O=C(Oc1ccc([N+](=O)[O-])cc1)N1CCC(C(O)(c2ccc3c(c2)OCO3)c2ccc3c(c2)OCO3)CC1
IC50 (Monoglyceride lipase (Rattus norvegicus, UniProt Q8R431); 2-OG hydrolysis, inhibitor; rat cerebellum; 60 min preincubation): 5.8 nM

CCCC(C(=O)c1ccc2c(c1)OCO2)N1CCCC1 (stereo not shown)
EC50 (Slc6a4 (Rattus norvegicus, UniProt P31652); transporter-mediated release, substrate; rat brain synaptosomes): inactive

O=c1c(O)c(-c2ccc(O)c(O)c2)oc2cc(O)cc(O)c12
IC50 (atpG/atpA/atpD; ATP synthase activity, inhibitor): ~33000 nM

CC(C)C[C@H]1C(=O)N2CCC[C@H]2[C@]2(O)O[C@](NC(=O)[C@@H]3C=C4c5cccc6[nH]c(Br)c(c56)C[C@H]4N(C)C3)(C(C)C)C(=O)N12
IC50 (Genome polyprotein, NS2B-NS3 protease (Zika virus, UniProt Q32ZE1); protease activity): 21600 nM

CN1C/C(=C\c2ccc(Cl)cc2Cl)C/C(=C\c2ccc(Cl)cc2Cl)C1
Ki (Slc6a3 (Rattus norvegicus, UniProt P23977); inhibitor): 6270 nM

O=C(O)[C@]1(O)C[C@@H](O)[C@@H](O)[C@H](O)C1
IC50 (HIV integrase; enzyme activity, inhibitor): > 25000 nM

CCCNC(=O)[C@H](CC(C)C)NC(=O)[C@H](Cc1c[nH]cn1)NC(=O)CNC(=O)[C@@H](NC(=O)[C@H](C)NC(=O)[C@H](Cc1c[nH]c2ccccc12)NC(=O)[C@H](CCC(N)=O)NC(=O)[C@H](N)Cc1ccc(O)cc1)C(C)C
IC50 (Gastrin-releasing peptide receptor; binding; literature species comparison): 14 ± 1 nM

O=C(Oc1ccc([N+](=O)[O-])cc1)N1CCC(C(O)(c2ccc3c(c2)OCO3)c2ccc3c(c2)OCO3)CC1
IC50 (Faah (Mus musculus, UniProt O08914); previously reported): 4690 nM

Oc1cc(O)cc(/C=C/c2ccc(O)c(O)c2)c1
IC50 (atpG/atpA/atpD; ATP synthase activity, inhibitor): ~14000 nM

Nc1ncnc2c1nc(Br)n2C1OC2COP(O)(=S)OC2C1O (stereo not shown)
Km or Ki (PDE1B; cyclic nucleotide hydrolysis, substrate or inhibitor, isothermal titration calorimetry): 5570 nM

O=C(CCN1CCCCC1)c1ccc(-c2ccc(C(=O)CCN3CCCCC3)cc2)cc1
IC50 (histamine H3 receptor; inhibitor): 308 ± 3 nM

C[C@@H]1O[C@@H](Oc2c(-c3ccc(O)c(O)c3)oc3cc(O)cc(O)c3c2=O)[C@H](O)[C@H](O)[C@H]1O
IC50 (atpG/atpA/atpD; ATP synthase activity, inhibitor): ~20000 nM

C=CCN(CC=C)CCc1c[nH]c2ccccc12
Ki (ADRA1B (Homo sapiens, UniProt P35368); binding; cloned human receptor; together with: [3H]prazocin): 1370 nM

CC(C)(C)OC(=O)c1cc2c(cn1)[nH]c1ccccc12
efficacy (human GABAA α5β3γ2 receptor; modulator, two-electrode voltage clamp; Xenopus oocytes; saturating, together with: GABA EC50; reference: GABA response): 88 ± 7%

CCCCCCCCCCCCCC/C(C(=O)O)=C(\C)C(=O)O
IC50 (Farnesyltransferase (Saccharomyces cerevisiae S288c, UniProt P22007+P29703)): 17000 nM

CO[C@H]([C@@H](C)[C@H]1O[C@]1(C)C[C@H](C)/C=C/C=C(\C)[C@H]1O[C@@H](CC(=O)O)CC[C@@H]1C)[C@@H](C)O
IC50 (Splicing factor 3B subunit 1 / PHD finger-like domain-containing protein 5A (Homo sapiens, UniProt O75533+Q7RTV0); in vitro splicing, inhibitor): 300 nM

O=c1cccccc1O
IC50 (Elastase (lasB, Pseudomonas aeruginosa, UniProt P14756); inhibitor): 387000 ± 1000 nM

O=C(O)CCCCCCCCCCCNC(=O)NC12CC3CC(CC(C3)C1)C2
IC50 (Soluble epoxide hydrolase (Gallus gallus, UniProt Q45QT1)): ~10 nM

C=CCN(CC=C)CCc1c[nH]c2ccc(OC)cc12
Ki (HTR6 (Homo sapiens, UniProt P50406)): 153 nM

CCOc1cc(Oc2ccc(C(F)(F)F)cc2Cl)ccc1[N+](=O)[O-]
IC50 (SLC5A5 (Homo sapiens, UniProt Q92911); iodide uptake, inhibitor): 2000 nM

Cc1cccc(C)c1OCC(=O)N[C@@H](Cc1ccccc1)[C@@H](O)C[C@H](Cc1ccccc1)NC(=O)[C@H](C(C)C)N1CCCNC1=O
IC50 (SLCO2B1 (Homo sapiens, UniProt O94956); transport): 720 nM

C[n+]1cc2c3c(ccc2c2ccc4cc5c(cc4c21)OCO5)OCO3
IC50 (glucocorticoid receptor; binding, competitor; together with: dexamethasone 10 nM): ~10000 nM

N[C@@]1(c2ccccc2Cl)CCC[C@@H](O)C1=O
activity (opioid receptors; binding, competitive binding screen; concentration not given): inactive

O=C(O)[C@H](O)[C@@H](O)C(=O)O
IC50 (HIV integrase; enzyme activity, inhibitor): > 25000 nM

C[C@]12CCC(=O)CC1=CC[C@@H]1[C@@H]2CC[C@]2(C)C(=O)CC[C@@H]12
Km (ketosteroid isomerase Y14F; substrate; pH 7.0, 3.3 % methanol): 17.1 ± 3.1 µM

For quick reference, copied from above:
O=C(O)[C@]1(O)C[C@@H](O)[C@@H](O)[C@H](O)C1
IC50 (HIV integrase; enzyme activity, inhibitor): > 25000 nM

O=C(O)[C@H](O)[C@@H](O)C(=O)O
IC50 (HIV integrase; enzyme activity, inhibitor): > 25000 nM
